# Results collected from several papers.
# Lines come from different studies, so protocols differ. “And” joins repeats or separate records; there may be more than shown. Numbers after ± are the reported error.
SMILES,organism,test,test system,conditions,how to read,measurement,result
CS(=O)(=O)CCCn1c(Cn2c(=O)n(CC(F)(F)F)c3ccncc32)cc2cc(Cl)ccc21,respiratory syncytial virus,RT-qPCR,"hospitalized infants 1-24 months, nasal swab","oral, 6, 4.5 or 3 mg/kg daily, day 5, mid dose by age cohort",reference: baseline,LS mean viral load change,-3.02 log10 copies/mL
NC[C@H]1O[C@H](O[C@H]2[C@H](O)[C@@H](O[C@H]3O[C@H](CO)[C@@H](O)[C@H](N)[C@H]3O)[C@H](N)C[C@@H]2N)[C@H](O)[C@@H](O)[C@@H]1O,Acinetobacter baumannii,colony counting,"19606, biofilm","50 µg/mL, 12 h, added: HNP1 8 µM",,survival,7.11% and 7.8% and 5.48% and 5.64% and 5.32% and 7.7%
COc1ccc(Br)c(/C=N/NC(=O)COc2ccc(-c3ccccc3)cc2)c1,Tetrahymena pyriformis and Klebsiella pneumoniae,virulence in co-culture,,,,IC50,54.7 nM
COC1=CC(c2ccc[nH]2)=N/C1=C\c1[nH]c(Cc2ccccc2)cc1Cc1ccccc1.Cl,Plasmodium yoelii,,CF1 mice,"oral, 25 mg/kg daily for 4 days, day 5",reference: vehicle,parasitaemia reduction,100%
Nc1ncnc2c1ncn2[C@@H]1O[C@@H]2COP(=O)(O)O[C@H]3[C@@H](O)[C@H](n4cnc5c(=O)[nH]cnc54)O[C@@H]3COP(=O)(O)O[C@H]2[C@H]1O,West Nile virus,"RNA sequencing, measured: interactions, syndecan, R-HSA-3000170",HFF-1 cells,"concentration not given, downregulated pathway",reference: WNV-infected untreated cells,fold enrichment,10.5
c1ccc(N2CCc3c(nnn3CC3CC3)C2)cc1,human adenovirus 2,viral replication,HEL,,,EC50,> 100000 nM
O=[N+]([O-])c1cc2c(ccc3c4cc([N+](=O)[O-])oc4ccc23)o1,Klebsiella aerogenes,REMA,,,,MIC90,> 32 µg/mL
CC[C@H](C)[C@H](NC(=O)[C@H](C)NC(=O)[C@H](CCCCN)NC(=O)[C@H](CC(C)C)NC(=O)[C@H](C)NC(=O)[C@@H](NC(=O)[C@H](Cc1c[nH]cn1)NC(=O)[C@H](CC(C)C)NC(=O)[C@@H](NC(=O)[C@@H](NC(=O)[C@H](CCCCN)NC(=O)[C@H](C)NC(=O)[C@H](C)NC(=O)[C@H](CO)NC(=O)[C@H](CCCCN)NC(=O)[C@H](Cc1ccccc1)NC(=O)[C@@H](NC(=O)[C@H](CCCCN)NC(=O)[C@H](CC(C)C)NC(=O)[C@H](Cc1ccccc1)NC(=O)[C@H](CO)NC(=O)[C@H](CCCCN)NC(=O)[C@H](Cc1c[nH]c2ccccc12)NC(=O)[C@H](CCCCN)NC(C)=O)[C@@H](C)O)[C@@H](C)O)C(C)C)[C@@H](C)O)C(=O)N[C@@H](CO)C(=O)N[C@@H](CO)C(N)=O,Klebsiella pneumoniae,,ATCC 1705,,,MBC range,16 µg/mL
Cc1c2c(nn1C)CSCc1cc(n(C)n1)CSc1cc(c3ccccc3c1)OCCCc1c(C(=O)O)n(C)c3c-2c(Cl)ccc13,Staphylococcus aureus,"label-free proteomics, measured: hld",SA113,concentration not given,reference: untreated,protein level fold change,0.0265
FC(F)(F)c1cccc(Nc2nc3ccccc3nc2Nc2cccc(C(F)(F)F)c2)c1,Plasmodium yoelii,oxygen consumption,17XL,2 µM,,inhibition,17%
Cn1c(=O)ccc2ccc(F)c(CCNC[C@H]3CN(c4cnc5c(n4)NC(=O)CO5)C(=O)O3)c21,Mycoplasma spp.,,,,,MIC50,< 0.015 µg/mL
O=C(Nc1ccsc1C(=O)NC1CCCCC1)c1ccc(F)cc1,Plasmodium yoelii,oxygen consumption,17XL,2 µM,,inhibition,1%
COC1=CC(c2ccc[nH]2)=N/C1=C\c1cc(-c2ccc(OC(F)(F)F)cc2)c(C)[nH]1.Cl,Plasmodium yoelii,,CF1 mice,"oral, 10 mg/kg daily for 4 days, day 5",reference: vehicle,parasitaemia reduction,100%
CN1CCN=C1c1ccc(NC(=O)c2ccc(C(=O)Nc3ccc(C4=NCCN4C)cc3)cc2)cc1,Tetrahymena pyriformis and Klebsiella pneumoniae,virulence in co-culture,,,,IC50,1160 nM
N#Cc1ccc2c(ccc3oc([N+](=O)[O-])cc32)c1,Mycolicibacterium aurum,REMA,ATCC 23366,,,MIC90,> 32 µg/mL
CSc1nc(O)n2nccc2n1,Tetrahymena pyriformis and Klebsiella pneumoniae,virulence in co-culture,,,,IC50,540 nM
C[C@H]1CN(c2n[nH]c3nc(N[C@H]4CC[C@H](NS(=O)(=O)CCC(F)(F)F)CC4)ncc23)CCO1,Leishmania donovani,cell growth,"promastigotes, LdBOB CYC9 overexpressing",,,EC50,8.2 ± 0.08 nM
CN[C@H](CC(C)C)C(=O)N[C@H]1C(=O)N[C@@H](CC(N)=O)C(=O)N[C@H]2C(=O)N[C@H]3C(=O)N[C@H](C(=O)N[C@H](C(=O)O)c4cc(O)cc(O)c4-c4cc3ccc4O)[C@H](O)c3ccc(c(Cl)c3)Oc3cc2cc(c3O[C@@H]2O[C@H](CO)[C@@H](O)[C@H](O)[C@H]2O[C@H]2C[C@](C)(N)[C@H](O)[C@H](C)O2)Oc2ccc(cc2Cl)[C@H]1O,Enterococcus faecium,broth microdilution,VanB vancomycin-resistant clinical isolates,,,MIC range,≥ 32 µg/mL
CCCCCC[C@H]1C(=O)O[C@H](C)[C@H](NC(=O)c2cccc(NC=O)c2O)C(=O)O[C@@H](C)[C@@H]1OC(=O)CC(C)C,bovine herpesvirus 1,Western blot,"MDBK cells, wild type","20 nM, 24 h",,viral protein level,decreased
C[C@@H](O)[C@H]1C(=O)N2C(C(=O)O)=C(S[C@@H]3CN[C@H](C(=O)N(C)C)C3)[C@H](C)[C@H]12,Acinetobacter baumannii,,"ATCC 19606, rat lung infection, lung",30 mg/kg,reference: early control,lung bacterial burden reduction,-1.32 log10 CFU/g
O=[N+]([O-])c1ccc(C2=[N+]([O-])c3ccccc3N3CCN=C23)cc1,Prevotella spp.,bacterial growth,,,,MIC90,≤ 0.06 µg/mL
COc1cccc(C(=O)NN(C(=O)c2cc(C)cc(C)c2)C(C)(C)C)c1C,Anopheles funestus,,"FUMOZ, resistant","tarsal contact, dose not given, no blood meal, without RME",reference: control,lifespan,no effect
COC1=CC(c2ccc[nH]2)=N/C1=C\c1cc(Cc2ccc(C(F)(F)F)cc2)c(C)[nH]1.Cl,Plasmodium yoelii,,CF1 mice,"oral, 25 mg/kg daily for 4 days, day 5",reference: vehicle,parasitaemia reduction,100%
O=C1NC(=O)C(Cc2ccc(O)cc2)S1 (centres unmarked),Tetrahymena pyriformis and Klebsiella pneumoniae,virulence in co-culture,,,,IC50,300 nM
COc1ccc2c(ccc3oc([N+](=O)[O-])c(OC)c32)c1,Klebsiella aerogenes,REMA,,,,MIC90,> 32 µg/mL
CC1(C)SC2C(NC(=O)C(NC(=O)C3=C(O)C4CCCN4C3=O)c3ccccc3)C(=O)N2C1C(=O)O (centres unmarked),Escherichia coli,broth microdilution,Keio mutant JW5195-1,18 h,,MIC,50 µg/mL

# A few entries again:
SMILES,organism,test,test system,conditions,how to read,measurement,result
COC1=CC(c2ccc[nH]2)=N/C1=C\c1cc(-c2ccc(OC(F)(F)F)cc2)c(C)[nH]1.Cl,Plasmodium yoelii,,CF1 mice,"oral, 10 mg/kg daily for 4 days, day 5",reference: vehicle,parasitaemia reduction,100%
CN1CCN=C1c1ccc(NC(=O)c2ccc(C(=O)Nc3ccc(C4=NCCN4C)cc3)cc2)cc1,Tetrahymena pyriformis and Klebsiella pneumoniae,virulence in co-culture,,,,IC50,1160 nM
N#Cc1ccc2c(ccc3oc([N+](=O)[O-])cc32)c1,Mycolicibacterium aurum,REMA,ATCC 23366,,,MIC90,> 32 µg/mL
